Measurements gathered from unrelated publications.
Parts stem from different laboratories: compare values within a part only. Substitutions count along the parent as printed.

Study 1
Target: RING finger protein unkempt homolog, zinc fingers 1-6, GST-SBP tag (UNK, Homo sapiens, UniProt Q9C0B0, residues 30-357)
Technique: RNA Bind-n-Seq
Molecule type: RNA
Sample: in vitro
Tested at: not given
Notes: RNA with constant flanks, human and mouse sites, ends assumed
Reference: input RNA pool
Reading: higher = stronger binding
Residues (chain): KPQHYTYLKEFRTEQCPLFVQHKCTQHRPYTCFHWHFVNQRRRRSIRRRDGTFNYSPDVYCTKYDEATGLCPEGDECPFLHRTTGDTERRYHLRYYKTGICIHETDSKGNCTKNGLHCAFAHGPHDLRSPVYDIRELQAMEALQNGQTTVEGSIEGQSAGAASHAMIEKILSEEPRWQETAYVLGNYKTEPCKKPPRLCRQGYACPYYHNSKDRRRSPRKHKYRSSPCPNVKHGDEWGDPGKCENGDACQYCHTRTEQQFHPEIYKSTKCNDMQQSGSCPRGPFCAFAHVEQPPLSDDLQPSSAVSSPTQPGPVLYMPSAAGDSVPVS
Oligonucleotide	bound/input enrichment [ratio]
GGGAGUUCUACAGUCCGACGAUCUUGCAGGGAAUGGGCUACAUACCAUCUGCCAGCAUGACUCGGCUCGCCCGAUCACGAACCCACUCAACCUCGAGUAGCCUCGGCUCUGGAGAAAGUCCCUUCAGCCGGUCUGUCACCAGCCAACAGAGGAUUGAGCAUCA	0.0644
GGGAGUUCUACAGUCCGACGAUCUCCCAGAGAUAAGUUCACCAAGAUGUCCAGUGACAGGCAAAGGUCGGAUGAUGAGAGCCCUAGCACCAGCAGUGGCAGUUCAGAUGCAGAUCAGCGAGACCCUGCCGCUCCAGAGCCCGACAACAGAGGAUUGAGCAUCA	0.122
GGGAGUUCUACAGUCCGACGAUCGAGGAAGACAAGCCUAAGCCUGCAGACGUGCAGCCAGAGCCUGGGGUGGCUGUACUCCGAGGACAGGAGGAGGAGGCUGAGCACGCUGGGGAGACACUGGGAGAUGACCCUUCACAGCCUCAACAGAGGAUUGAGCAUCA	0.356
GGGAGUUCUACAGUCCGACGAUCCAUUCAAAAUGGGUAUUCUUGAUUUCCUCAGAACUGAUAAAAAAUAAUGCAACAUCACCAACAGAUCCUGUUAUUUCCUCUGCAGGAUACAGUUCAAUAUGAUGCAUGAAAAAUGCUCCACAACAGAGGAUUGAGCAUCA	0.194
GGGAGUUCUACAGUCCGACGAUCCCUGGUAAAUCUCAGGCAUCUAAUUUGAGAAAACGAGAAACCACAGCGUCUUCUAAAACAGUAGCAGCCAGGUCAGCACAGAAUCAGCCUCGGAAAGAAGAUCAGAAGAGAGCCUUCGUGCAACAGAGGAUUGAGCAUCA	0.137
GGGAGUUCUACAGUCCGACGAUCGCCCCCAGAAGACCCAUAGAAAUGAGAGGCCUGAGGUCUACAAGUCGCUGCUAGAAAUAUUUUAGCCUCUCCAAAGCCCAGAAUGCAGCCCCGACCCAAGUUUGUAAGGGUUCUGGGUGCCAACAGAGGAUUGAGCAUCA	1.24
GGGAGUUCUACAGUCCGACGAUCAUGUCAUAUGGAUUAAACAUUGAAAUGCACAAACAGACUGAAAUCGCCAAGAGAUUGAAUACGAUUUGUGCACAAGUCAUCCCAUUUCUGUCUCAGGAACAUCAACAACAGGUGGCCCAGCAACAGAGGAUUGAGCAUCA	0.0629
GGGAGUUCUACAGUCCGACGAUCCUGCUUUUGAUCCUGCCUGUUGUUGAAGCAGUGGAAGCUGGAGACGCGAUUGCACUCUUAUUAGGUGUGGUUCUCAGCAUUACCGGCAUCUGUGCUUGCUUGGGGAUAUACGCAAGAAAGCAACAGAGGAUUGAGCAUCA	0.957
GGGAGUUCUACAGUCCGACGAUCCAGAAGAUCGAUGACCUCUUCUCCGGGAAGCUGUACCUCAUCGGCAUUGCUGCCAUCGUGGUCGCUGUGAUCAUGAUCUUCGAGAUGAUCCUGAGCAUGGUGCUGUGCUGUGGCAUCCGGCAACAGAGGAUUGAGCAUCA	0.055
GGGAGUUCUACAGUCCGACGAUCCAUACACAACGAUAGAUGGAUAAACAAAACAUAAAUACUUAAUCAUAGACAGGCUGAGGGUAGGGGGAAGCUGGCGCUUACCAUUUUGUAAUCACUACAAUAAUGUCUGAGGGAAAUAUCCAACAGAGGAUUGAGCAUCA	1.08
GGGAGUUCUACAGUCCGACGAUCAGAGGAGUUUGGGGGCUUGGCACCUGAAAAUUUAGACCGCAUUCUUAUUAAGUAAAGGAAGAGGUAGGGAGGCCGAGGCGGGCGGAUCAUGAAAUCAGGAGAUCCAGACCGUCCUGGCUACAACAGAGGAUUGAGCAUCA	0.989

Study 2
Target: RNA binding protein fox-1 homolog 2, RRM domain, GST-SBP tag (RBFOX2, Homo sapiens, UniProt O43251-10, residues 100-194)
Technique: RNA Bind-n-Seq
Molecule type: RNA
Sample: in vitro
Tested at: 365 nM
Notes: natural RNA segment, single round, ends assumed
Reference: no-protein control
Reading: higher = stronger binding
Residues (chain): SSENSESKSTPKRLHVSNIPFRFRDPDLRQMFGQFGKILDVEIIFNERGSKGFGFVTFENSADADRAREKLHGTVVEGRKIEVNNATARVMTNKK
Oligonucleotide	RBNS enrichment (R)
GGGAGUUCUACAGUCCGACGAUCGAAGAUAAUGAAAGCAAAUAUGUAACAAUACAAGUAGGGACUUUAGAGCUUCUAUUUGGGUUAAAACAUCCACUCACUUGGUUAGGAGCUAUGCCUCAGAAACUUCCUGGUGGAAUUCUCGGGUGCCAA	0.425
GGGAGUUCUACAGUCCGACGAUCGUGGGCUGUGCGUGGGUUCACCUGGGGCCUGCUUUUCAGAAGGCAAAGAUAAGCCCGCCAUGCUGGGCUGGGGAACUCUGAAGAAGACCAGCAACGAGUACCUUCUCCCGUGGAAUUCUCGGGUGCCAA	0.357
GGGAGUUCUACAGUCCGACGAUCGUUUGUUGAGAGGAUUUCCUGAGACUGGUUUGGGUCUCCCUGCAUGACAGUCCCCCAGAAACUUGGUGUGUCCUGGGCUGGACUGACACCCAGAAAGCUUACCUGCGAGCUGGAAUUCUCGGGUGCCAA	28.7
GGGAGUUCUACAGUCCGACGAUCAAAGACUCCCCUUAUCACUCUCCUCACAGUUGCUCUGCAUCUUUAAAGAGUAUUAGCUUCUGCUUCCGGACUCAGUCUUUGUUGAGUGGGCCACUUCCAGGGGUGUGCCCUGGAAUUCUCGGGUGCCAA	0.23
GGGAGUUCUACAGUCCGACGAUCUAUUUAAAUAUCCACUGUGUGUGUCACAAAGUUGUUCUUUUGAGUGCAAUAAAGAUAGCUUAACACAUCUCCAGAGCAGCAGCCGAUUUGUCUCUUUGAAGGGGGUAUUUUGGAAUUCUCGGGUGCCAA	0.754
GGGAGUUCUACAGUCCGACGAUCUGGCCCUGAGGCCCAGAGAGACAGCUGUCCACUUACCGGCAGGGUAGUCAUAGACAUAGAUACUGCAGCCUGCCCUCCUCUUGAGGCUGUUUCUGACAAACUAUCAAGACUGGAAUUCUCGGGUGCCAA	0.333
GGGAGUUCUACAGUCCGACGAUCAGUUGAAGCAGUCCGUGUGCAAAGCCUGCAUCUAAACACUUGCGUUAAUAAGUCAUUAACCGCUCAGUACCAGAUGUGGCAAAUCUCAAGUGAUUGUGGACUCCUGGCUCUGGAAUUCUCGGGUGCCAA	0.23
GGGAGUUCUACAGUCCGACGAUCUUAAAGACACGCACAGUCCCUUCCAUUGUCCCACAGGAGUUCCUCUGGCUGAGUAUGCCAUCCAGAGCAAGCGAUGCCCUCCCAGGUCAGUCUGGGGCACAAGCUGAGCCUGGAAUUCUCGGGUGCCAA	0.244
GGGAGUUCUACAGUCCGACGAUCGGGGUUGUCCAGCCUGGACUUGUAGCACACAUGUCCUGAAGCAAAGCUCCGGUGACUGCAUGAGCCACCUGGCCACAGUCCUCCCAUGGAGGGCCUGCCGUGACGCUCAGUGGAAUUCUCGGGUGCCAA	0.528
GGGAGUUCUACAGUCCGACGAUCAGAAUUAAAGUUGCCAAAUUAUUCUGAUUGGUCUUUAAUCUCCUUAAGUUUUUGAUUUAUCUUACUUGGUAAAUGAAAUGCAUUAGCUGUCUGCCUUUUCCUUCCCAUCCUGGAAUUCUCGGGUGCCAA	1.25
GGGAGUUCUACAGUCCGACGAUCUUACCGUGUAAAUGAAUAUUUGUAUGAUUAAAUUAACACACACAAAAAAAAAAACCCCGCCUUUAUCUGUGUGCGUGUGAUUCUGUUGCAUCCUCGAGCUGCUGCCUGCAUGGAAUUCUCGGGUGCCAA	11.5
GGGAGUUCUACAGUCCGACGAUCCAGGACAUCUGUGGCCCUGAGCCGGCUCUGGUCCUCGGCCUUUCCCAGCCUUCCCACAUCUUCCCAGGCCAAGAUGCAGGGGGCAGGCUGAAGAGAAAUUUGUGUGUCCUUGGAAUUCUCGGGUGCCAA	0.488

Study 3
Target: CCND3, cyclin fold, Cln2 fusion (human)
Technique: yeast growth competition, sequencing
Sample: yeast
Notes: weak parent motif
Reference: not given
Reading: higher = stronger binding
Parent: PKN2 docking peptide (human); VSAVQKLDFSDTM
Variant	normalised enrichment score
NSAVQKLDFSDTM [V1N]	0.146
VSLVQKLDFSDTM [A3L]	0.092
VSAVQVLDFSDTM [K6V]	0.118
VSAVQKLDFSDTV [M13V]	0.122
VSAVQKLDESDTM [F9E]	0.118
VSAVQPLDFSDTM [K6P]	0.0566
VSAVQKLDFSLTM [D11L]	0.157
VSAVQKLDFSFTM [D11F]	0.0646
VSAVQKHDFSDTM [L7H]	0.114
VSAVQKLIFSDTM [D8I]	0.127
VSAVQKLAFSDTM [D8A]	0.138

Single results of other studies
Substance	target	test	test system	conditions	how to read	measurement	result
PhoQ, residues 284 288 289 292 302 303 AEGLLW	PhoP, residues 12 14 15 18 19 GQALL (Escherichia coli, UniProt P23836)	Sort-seq, measured: YFP reporter	E. coli	PhoQ-PhoP variant library, with: 10 µM Mg2+	reference: high Mg2+ state, higher = stronger signaling	fold induction	4.48

A few entries again (study 3):
Variant	normalised enrichment score
VSAVQPLDFSDTM [K6P]	0.0566
VSAVQKLDFSLTM [D11L]	0.157
VSAVQKLDFSFTM [D11F]	0.0646
VSAVQKHDFSDTM [L7H]	0.114
VSAVQKLIFSDTM [D8I]	0.127
VSAVQKLAFSDTM [D8A]	0.138
